Results collected from several papers.
Every numbered part comes from another study and shows a few of its results, in no order.

Study 1 — technique: universal PBM; molecule type: double-stranded DNA, one strand shown; matrix: in vitro; concentration: not given; direction: higher = stronger binding
Target: Sal-like protein 4, full length isoform B (SALL4, Homo sapiens, UniProt Q9UJQ4-2, residues 1-616)
Notes: 8-mer, flanks averaged, mean of replicates
| Oligonucleotide | E-score |
| --- | --- |
| ACCTAATG | -0.0475 |
| TAACCGCA | 0.089 |
| TCCCAACA | -0.0131 |
| CACGCATG | -0.137 |

Study 2 — technique: RNA Bind-n-Seq; molecule type: RNA; matrix: in vitro; concentration: not given; notes: RNA with constant flanks, ends assumed; reference: input RNA pool; direction: higher = stronger binding
Target: RING finger protein unkempt homolog, zinc fingers 1-6, GST-SBP tag (UNK, Homo sapiens, UniProt Q9C0B0, residues 30-357)
Sequence of UniProt Q9C0B0 (30-357, looked up): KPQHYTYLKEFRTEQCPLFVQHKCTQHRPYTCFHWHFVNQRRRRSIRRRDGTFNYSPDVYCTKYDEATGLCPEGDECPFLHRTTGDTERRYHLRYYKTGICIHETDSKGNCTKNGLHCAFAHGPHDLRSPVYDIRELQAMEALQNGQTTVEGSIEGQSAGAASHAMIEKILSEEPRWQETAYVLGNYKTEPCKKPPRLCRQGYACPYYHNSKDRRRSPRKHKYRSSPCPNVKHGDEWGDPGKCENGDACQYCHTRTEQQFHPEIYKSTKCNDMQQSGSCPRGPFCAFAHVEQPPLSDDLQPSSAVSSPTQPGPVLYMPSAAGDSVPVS
| Oligonucleotide | bound/input enrichment [ratio] |
| --- | --- |
| GGGAGUUCUACAGUCCGACGAUCUAUGAAUUUGACAAGUUUUGGUUUGAAGAAGAACCAGAAAGCAUUAUGUAUUUCAAUUUGUACCGAGAGAAGUUUCAUGAAAAGAUUAAAGGACUUUUACUGGAUUGUAAUGUAGCACUUCAACAGAGGAUUGAGCAUCA | 0.453 |
| GGGAGUUCUACAGUCCGACGAUCAAAGAACUGAUAGGAAAAAAAAUCCUCUGUCACUUUUUUUUUUAAAAAAAGAAAACCUUGUUCCGAUACAAAGUCUUGUAUAAAUUAUAAUUUUUAUUUAAUAAACCUAAAAUGCUCUGUCAACAGAGGAUUGAGCAUCA | 19.1 |
| GGGAGUUCUACAGUCCGACGAUCUUCUUGCCCAUGGAAUCUCCAGGGGUGGAAAUAGGGGAUGUGGCCACUGGUGGGCCUUGCUCCGUCCCUGCCUUGUUGUCUUAUGGUCUCCACUUGCUUUUCUGUCUUGUCUUUUUCUUUCAACAGAGGAUUGAGCAUCA | 0.16 |

Study 3 — technique: protein-binding microarray; molecule type: double-stranded DNA, one strand shown; matrix: in vitro; concentration: not given; direction: higher = stronger binding
Target: Hepatocyte nuclear factor 3-beta, forkhead domain (FOXA2, Homo sapiens, UniProt Q9Y261, residues 142-269)
Notes: k-mer, scored over probes, only values ≥0.25
Construct (chain): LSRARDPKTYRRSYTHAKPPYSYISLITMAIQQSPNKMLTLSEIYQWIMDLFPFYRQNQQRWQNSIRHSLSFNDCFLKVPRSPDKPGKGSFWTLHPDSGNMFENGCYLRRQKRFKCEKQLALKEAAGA
| Oligonucleotide | E-score |
| --- | --- |
| ACAATACA | 0.354 |
| GTACAGTA | 0.267 |
| AGTACACA | 0.375 |
| ATCGTAAA | 0.26 |

Further values, each from its own experiment
| Molecule | target | assay | test system | conditions | how to read | endpoint | value |
| --- | --- | --- | --- | --- | --- | --- | --- |
| PhoQ, residues 284 288 289 292 302 303 TGYLSA | PhoP, residues 12 14 15 18 19 SPWRL (Escherichia coli, UniProt P23836) | Sort-seq, refers to: YFP reporter | E. coli | PhoQ-PhoP variant library, together with: 10 µM Mg2+ | reference: high Mg2+ state, higher = stronger signaling | fold induction | 5.92 |

A few entries again (study 3):
| Oligonucleotide | E-score |
| --- | --- |
| GTACAGTA | 0.267 |
| AGTACACA | 0.375 |
